# Results collected from several papers.
# Lines come from different studies, so protocols differ. ± gives the spread as reported.
Structure (SMILES),test,system,setting,tissue uptake
N=C(N)NCc1ccc(C(=O)NCCCC[C@H](NC(=O)N[C@@H](CCC(=O)O)C(=O)O)C(=O)O)cc1[211At],,"SCID mouse, PC-3 xenografts, liver",1 h,8.25 ± 2.47 %ID/g
C=Cc1cc(O)cc2nc(-c3ccc(O)c([76Br])c3)oc12,,"female C57BL/6 mouse, kidney","3 h, high dose, added: estradiol 20 µg blocking",0.64 ± 0.25 %ID/g
C[S]1CC[S]2CC[P](CO)(CO)[99Tc+]12.[C-]#[O+].[C-]#[O+].[C-]#[O+],,"female CF-1 mouse, large intestine","intravenous, 24 h",2.7 %ID/g
CC[C@H](C)[C@@H]1NC(=O)[C@@H](NC(=O)CNC(=O)c2ccc(F)cc2)CSSC[C@@H]2NC(=O)[C@H](C)NC(=O)CNC(=O)[C@@H]3CCCN3C(=O)[C@@H]3CSSC[C@@H](C(=O)NCC(=O)O)NC(=O)[C@H](Cc4ccc(O)cc4)NC(=O)CNC(=O)[C@H](CC(N)=O)NC(=O)CNC(=O)[C@H](CCCNC(=N)N)NC(=O)[C@H](CSSC[C@H](NC(=O)[C@H](CCCNC(=N)N)NC(=O)[C@H](Cc4ccccc4)NC(=O)[C@H](CC(C)C)NC(=O)[C@H](CC(C)C)NC(=O)[C@H]([C@@H](C)O)NC(=O)CNC(=O)[C@H](CC(C)C)NC(=O)[C@H](CC(=O)O)NC(=O)[C@H]([C@@H](C)O)NC(=O)[C@H](CCCNC(=N)N)NC(=O)[C@H](CCSC)NC(=O)[C@H](CC(N)=O)NC(=O)[C@H](CC(C)C)NC1=O)C(=O)N[C@@H](CCCNC(=N)N)C(=O)N[C@@H](CCCNC(=N)N)C(=O)N[C@@H](CC(=O)O)C(=O)N[C@@H](CO)C(=O)N[C@@H](CC(=O)O)C(=O)N3)NC(=O)[C@H]([C@@H](C)CC)NC2=O [fluorine-18 labelled],PET,"nu/nu mouse, female, BxPC-3 xenograft, liver","intravenous, 1 h",1.2 ± 0.2 %ID/g
CN[C@](C)(C[18F])C(=O)O,,"SCID mouse U87 xenograft, kidney","120 min, post injection",2.8 ± 1 %ID/g
CCCC[C@H](NC(=O)CCOCCOCCNC(=O)CN1CCN(CC(=O)O)CCN(CC(=O)O)CCN(CC(=O)O)CC1)C(=O)N[C@H]1CC(=O)NCCCC[C@@H](C(N)=O)NC(=O)[C@H](Cc2c[nH]c3ccccc23)NC(=O)[C@H](CCCNC(=N)N)NC(=O)[C@@H](Cc2ccccc2)NC(=O)[C@H](Cc2c[nH]cn2)NC1=O [gallium-68 labelled],biodistribution,"C57BL/6J mouse male tumour-bearing, seminal vesicle","1 h post injection, unblocked",0.2 ± 0.1 %ID/g
N=C(N)NCc1ccc(C(=O)NCCCC[C@H](NC(=O)N[C@@H](CCC(=O)O)C(=O)O)C(=O)O)cc1[131I],,"SCID mouse, PC-3 xenografts, liver",21 h,0.16 ± 0.03 %ID/g
CCCC[C@H](NC(=O)CN1CCC(NC(=O)CN2CCC(NC(=O)CN3CCN(CC(=O)O)CCN(CC(=O)O)CCN(CC(=O)O)CC3)CC2)CC1)C(=O)N[C@H]1CC(=O)NCCCC[C@@H](C(N)=O)NC(=O)[C@H](Cc2c[nH]c3ccccc23)NC(=O)[C@H](CCCNC(=N)N)NC(=O)[C@@H](Cc2ccccc2)NC(=O)[C@H](Cc2c[nH]cn2)NC1=O [gallium-68 labelled],biodistribution,"C57BL/6J mouse male tumour-bearing, adrenal glands","1 h post injection, unblocked",0.2 ± 0.1 %ID/g
N=C(N)NCc1ccc(C(=O)NCCCC[C@H](NC(=O)CCCCCCC(=O)NCCCC[C@H](NC(=O)N[C@@H](CCC(=O)O)C(=O)O)C(=O)O)C(=O)O)cc1[131I],,"SCID mouse, PC-3 xenografts, brain",21 h,0.01 ± 0.01 %ID/g
O=C(O)CC[C@H](NC(=O)O[C@@H](CCCCNC(=O)c1ccc([18F])cc1)C(=O)O)C(=O)O,,"mouse, PC-3 PIP/flu xenografts, small intestine",90 min,0.27 ± 0.11 %ID/g
N=C(N)NCc1ccc(C(=O)NCCCC[C@H](NC(=O)CCCCCCC(=O)NCCCC[C@H](NC(=O)N[C@@H](CCC(=O)O)C(=O)O)C(=O)O)C(=O)O)cc1[211At],,"SCID mouse, PC-3 xenografts, muscle",1 h,0.38 ± 0.16 %ID/g
COc1cc2ncnc(Oc3cccc(N[11C](=O)Nc4cc(C(C)(C)C(F)(F)F)on4)c3)c2cc1OC,,"Balb/c nude mouse, female, A375 melanoma xenograft, small intestine","6.6 MBq, 60 min",22.3 ± 3.18 %ID/g

# Some of these lines once more:
Structure (SMILES),test,system,setting,tissue uptake
CCCC[C@H](NC(=O)CN1CCC(NC(=O)CN2CCC(NC(=O)CN3CCN(CC(=O)O)CCN(CC(=O)O)CCN(CC(=O)O)CC3)CC2)CC1)C(=O)N[C@H]1CC(=O)NCCCC[C@@H](C(N)=O)NC(=O)[C@H](Cc2c[nH]c3ccccc23)NC(=O)[C@H](CCCNC(=N)N)NC(=O)[C@@H](Cc2ccccc2)NC(=O)[C@H](Cc2c[nH]cn2)NC1=O [gallium-68 labelled],biodistribution,"C57BL/6J mouse male tumour-bearing, adrenal glands","1 h post injection, unblocked",0.2 ± 0.1 %ID/g
N=C(N)NCc1ccc(C(=O)NCCCC[C@H](NC(=O)CCCCCCC(=O)NCCCC[C@H](NC(=O)N[C@@H](CCC(=O)O)C(=O)O)C(=O)O)C(=O)O)cc1[131I],,"SCID mouse, PC-3 xenografts, brain",21 h,0.01 ± 0.01 %ID/g
